Published values collected from several papers.
Every numbered part comes from another study and shows a few of its results, in no order. Positions count from the first letter of the parent shown.

Series 1
Target: RNA binding protein fox-1 homolog 2, RRM domain, GST-SBP tag (RBFOX2, Homo sapiens, UniProt O43251-10, residues 100-194)
Method: RNA Bind-n-Seq
Form: RNA
Sample: in vitro
Tested at: 365 nM
Notes: natural RNA segment, single round, ends assumed
Baseline: no-protein control
Reading: higher = stronger binding
Measurement: RBNS enrichment (R)
All sequences stand within: GGGAGUUCUACAGUCCGACGAUC … UGGAAUUCUCGGGUGCCAA
Target sequence (chain): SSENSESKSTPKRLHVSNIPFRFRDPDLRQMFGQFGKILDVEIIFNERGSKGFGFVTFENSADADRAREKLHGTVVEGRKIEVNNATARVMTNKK
Strand = GUAAUGGGAAUUGAUCAGUGCCACCACCCUUGACCCCAACUACCAUCCCAGAUGCCCAGAUUCCAGUCCUGGAGUUUUAUUCUCUCAGCUUGAUCCUUUGACCAAGAAGA; result = 0.347
Strand = GGCCAUUCCCUGGGACUCUCGCUCCUGCACUGCCAGCCCCUUCUCCUCUCCCCAGGGCCUGGCCCUACCUCCUGGUCUUGUAAUUACAGGAGCCAUUUCUGUAGGUAACU; result = 0.894
Strand = GGGGACAAACUCAGGGCAGCCCUGUCCAGGUAGAAAUAUUUUUGCCCCCCUGUCUGAUGUUGAUGAGGGGUCAUACCAGCCAGGGAGACCCUCUGGGAGGAAGCUGCCAC; result = 0.468
Strand = CUGGAACUGAAACUACAACCAAUGUGCUACGGUGGGCGAUUCUUUUCAUGGCCCUUUAUCCUAAUAUUCAAGUACUGGAGAGACCCAGAAGUGUUCCAUCCUGAGCGAUU; result = 0.378
Strand = GACAUGUCUUCAUGUCCAGCUACUUGUUUCACCAUGGCAGACCUCCCUGAGCCUUCUUCCUGCCCUGGGUAGGAAGUGUGGCUCUGGGUCUGUGGUCACUCUCCACCUUG; result = 0.272
Strand = AAAACAGCUUGCACGGUGCUAAGCUGGGGCCCACCUAGCUUGUUUCAUUGUUGGGAAAUAAAACAUCAAGAACAAAAACAUUUGUGGUUGUGAGAAUGUCUCAGUGUAAU; result = 1.23
Strand = AGGAUGCUAAUCCCUAGAGCAGUUUACCAGCUAUGUGUGAAAUUGAAGCAGGUACCAUGGAUGACACGGGACUGCCCAACAACACUUGGAAAUGAUUGUUAACAUCACAG; result = 0.304
Strand = ACCUUGGACUUGAGGACCUACCUGAUGGGACGUUUCCACGUGUCUCUAGAGAAGGAUUCCUGGAUCUAGCUGGUCACGACGAUGUUUUCACCAAGGUCACAGGAGCAUUG; result = 0.222
Strand = AGUGUAUCAAAAAUUGAUGGGAUAUUAGUGUUAGGUUUUGCUUAAAUGAAAAUUAAUAAAUUCAAAAAUACUAAAAGUCACCUUCUUUGUCACGUUAGCAACCAGUUUCU; result = 0.329
Strand = GGCCACUUCCAGGGGUGUGCCCGGGGUUAGGCAAGUGGCAGACGAGGGUUCUUAUUUGAGGCUUUGCUAGGCUCAUCUGCUGUGUCCUGGGUAGUCCACUCAUAUUCUUG; result = 0.695
Strand = GCCUCCAUGUCUGCUUGCAUCUAGCUUGCACAAAGAUAGAUCUUUGUGGUGAGAUCAUCUGUGUGGAGUUUUAAGAAGCUCUGGAAGAAGGUACUGCCCGCGUUUAAAGG; result = 1.35
Strand = CUUAACCAGCAGGGCAAAUUCCACUUGCAGACAUCCUUUACUCUGUGGUCCCUUGUUAGUACCGAAGUGCAAAAAAGAAAUGCAGUUCUGUGUUUGGAACAAGAAGCAUC; result = 0.446

Series 2
Target: Hepatocyte nuclear factor 3-beta, forkhead domain (FOXA2, Homo sapiens, UniProt Q9Y261, residues 142-269)
Method: protein-binding microarray
Form: double-stranded DNA, one strand shown
Sample: in vitro
Tested at: not given
Notes: k-mer, scored over probes, only values ≥0.25
Reading: higher = stronger binding
Measurement: E-score
Construct (chain): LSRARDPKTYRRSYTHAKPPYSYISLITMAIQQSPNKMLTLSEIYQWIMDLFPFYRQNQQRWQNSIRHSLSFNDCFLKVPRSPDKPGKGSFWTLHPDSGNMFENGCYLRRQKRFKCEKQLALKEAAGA
Strand = CATTATAC; result = 0.314
Strand = ACAGACAT; result = 0.258
Strand = CCATATTA; result = 0.271
Strand = GTTACACA; result = 0.301
Strand = TAATATCA; result = 0.305
Strand = ATATTATA; result = 0.324
Strand = ATAATGTG; result = 0.315
Strand = AGTACTAA; result = 0.254
Strand = TGTATCAA; result = 0.29
Strand = AGTATACA; result = 0.316
Strand = ACCAACTA; result = 0.256
Strand = AATACACA; result = 0.349
Strand = TATTTAGA; result = 0.28
Strand = CAACAATA; result = 0.318
Strand = ACAATAAT; result = 0.307
Strand = AAAAACGA; result = 0.294
Strand = AATACAAC; result = 0.309
Strand = ACGTAACA; result = 0.288
Strand = AAACACTA; result = 0.272
Strand = CACATACA; result = 0.316
Strand = CTATTCAA; result = 0.348
Strand = TAGTTATA; result = 0.316
Strand = TGTAATAA; result = 0.31
Strand = ATGTGGTA; result = 0.279
Strand = CAAACGTA; result = 0.283

Series 3
Target: Interferon regulatory factor 5, full length, phosphomimetic (IRF5, Homo sapiens, UniProt Q13568-2, residues 1-514, S451D/S453D/S456D/S462D)
Method: protein-binding microarray
Form: double-stranded DNA, one strand shown
Sample: in vitro
Tested at: 940 nM top
Notes: 60-bp whole probe
Together with: salmon DNA 0.4 mg/ml
Baseline: random background probes
Reading: higher = stronger binding
Measurement: fitted relative affinity
All sequences stand within: GCCTAGCAC … GTCTTGATTCGCTTGACGCTGCTG
Strand = ATAGAACTGAGACTGGATTAGTGCTAG; result = -0.00832 z-score
Strand = GACGGTATCGGGTTTCGGGATGTGCTA; result = 5.38 z-score
Strand = GCAAATATATCAGTGAATTTGTGCTAG; result = -0.0531 z-score
Strand = GACGGACTCGGGACTGGGGACGTGCTA; result = -0.545 z-score
Strand = TCAGCCCTCACCATCATACTGTGCTAG; result = 0.571 z-score
Strand = GACGATAGCAGTATCGAGACGTGCTAG; result = 1.04 z-score
Strand = GACGGTCTCGGTTTCGAGACGTGCTAG; result = 6.5 z-score
Strand = GACGGTATCGGTCTCGAGACGTGCTAG; result = 8.6 z-score
Strand = GACGATAACAGTATCGAGACGTGCTAG; result = 1.74 z-score
Strand = TCACTCCTCTCTCTTTCACTGTGCTAG; result = 2.1 z-score
Strand = GACGATCTCAGTATCGCGACGTGCTAG; result = 0.69 z-score
Strand = TTATGTTTCGGGTATCGGTTAGTGCTA; result = 6.4 z-score
Strand = TTAGGTTCCGGTTTCGGCTAGTGCTAG; result = 6.6 z-score
Strand = TTAGAGCTCAGACTGGATTAGTGCTAG; result = -0.602 z-score
Strand = TTAGATTTAAGTATCGATTAGTGCTAG; result = 5.56 z-score
Strand = TTAGTTCTCAGTCTCGATTAGTGCTAG; result = 4.48 z-score
Strand = GACGGTCTCCTTGTCCTGACGTGCTAG; result = 0.0153 z-score
Strand = TACGGTATCCTACTGCTGACGTGCTAG; result = -0.226 z-score
Strand = TCACCTCTCTCTATTCAACTGTGCTAG; result = 2.03 z-score
Strand = GACGAACGGGGGTATCGAGACGTGCTA; result = 2.97 z-score

Series 4
Target: Sal-like protein 4, full length isoform A (SALL4, Homo sapiens, UniProt Q9UJQ4, residues 1-1053)
Sequence of UniProt Q9UJQ4 (whole entry, looked up): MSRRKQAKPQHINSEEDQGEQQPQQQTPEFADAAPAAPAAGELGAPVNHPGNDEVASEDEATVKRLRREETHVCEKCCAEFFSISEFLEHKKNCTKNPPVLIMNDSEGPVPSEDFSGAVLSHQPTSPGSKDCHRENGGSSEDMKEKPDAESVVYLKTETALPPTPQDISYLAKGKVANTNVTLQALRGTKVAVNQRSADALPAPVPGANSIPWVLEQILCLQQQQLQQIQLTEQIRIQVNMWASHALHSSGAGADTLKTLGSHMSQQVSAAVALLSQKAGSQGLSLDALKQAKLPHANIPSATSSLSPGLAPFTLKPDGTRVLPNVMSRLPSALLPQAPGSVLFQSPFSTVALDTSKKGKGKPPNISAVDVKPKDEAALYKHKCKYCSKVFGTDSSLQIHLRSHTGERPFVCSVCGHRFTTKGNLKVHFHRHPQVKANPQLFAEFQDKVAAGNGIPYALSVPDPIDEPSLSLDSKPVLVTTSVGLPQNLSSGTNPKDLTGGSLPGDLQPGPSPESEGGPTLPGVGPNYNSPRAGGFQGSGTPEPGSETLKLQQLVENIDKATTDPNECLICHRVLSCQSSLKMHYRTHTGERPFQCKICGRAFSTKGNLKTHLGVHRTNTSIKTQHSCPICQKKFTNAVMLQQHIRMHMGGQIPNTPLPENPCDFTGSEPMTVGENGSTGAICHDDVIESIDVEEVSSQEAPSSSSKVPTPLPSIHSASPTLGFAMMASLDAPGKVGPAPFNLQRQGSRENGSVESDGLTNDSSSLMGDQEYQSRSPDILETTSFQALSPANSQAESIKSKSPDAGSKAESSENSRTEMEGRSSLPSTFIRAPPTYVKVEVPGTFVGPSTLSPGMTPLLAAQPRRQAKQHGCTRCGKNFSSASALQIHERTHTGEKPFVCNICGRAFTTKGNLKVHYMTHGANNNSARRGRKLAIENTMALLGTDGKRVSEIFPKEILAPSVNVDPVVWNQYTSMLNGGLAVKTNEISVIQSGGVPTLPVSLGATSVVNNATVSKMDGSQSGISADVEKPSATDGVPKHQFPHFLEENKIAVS
Method: universal PBM
Form: double-stranded DNA, one strand shown
Sample: in vitro
Tested at: 600 nM
Notes: 8-mer, flanks averaged, mean of replicates
Reading: higher = stronger binding
Measurement: E-score
Strand = GCGCCAAA; result = -0.0625
Strand = CCGGAGGC; result = -0.392
Strand = CTTAGATA; result = 0.217
Strand = CGTAACCA; result = 0.0648
Strand = GCCACGGA; result = -0.236
Strand = ATCTAGGC; result = -0.0219
Strand = ATCGTACG; result = 0.0815
Strand = AGCGAGTA; result = -0.104
Strand = GAAGGCCC; result = -0.266
Strand = GCGCACAC; result = -0.192
Strand = AGGTGGCA; result = -0.0637
Strand = CAGGAGAC; result = -0.183
Strand = ATCCTCTG; result = -0.0368
Strand = AACTGGCG; result = -0.234
Strand = AGAGATAA; result = 0.293
Strand = CCAGCCTA; result = -0.27
Strand = CGGAAGAA; result = 0.0332
Strand = AGGGCGGC; result = -0.383
Strand = AAAGTTCT; result = 0.148

Series 5
Target: NFE2, bZIP domain (human)
Method: DHFR protein complementation
Sample: yeast
Notes: single substitutions, most at no-binding floor
Baseline: wild-type JUN-FOS pair
Reading: higher = stronger binding
Measurement: binding fitness
Starting sequence: JUN, bZIP domain (human); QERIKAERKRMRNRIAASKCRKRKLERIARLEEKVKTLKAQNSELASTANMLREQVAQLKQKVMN; partner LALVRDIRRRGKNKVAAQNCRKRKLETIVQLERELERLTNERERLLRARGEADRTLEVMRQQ
Variant = E54G; result = -1.45 natural log
Variant = E44F; result = -1.5 natural log
Variant = T48E; result = -1.39 natural log
Variant = K34P; result = -1.53 natural log
Variant = M51T; result = -1.43 natural log
Variant = E33D; result = -1.54 natural log
Variant = A57S; result = -1.52 natural log
Variant = E44S; result = -1.51 natural log
Variant = L52P; result = -1.5 natural log
Variant = V56G; result = -1.51 natural log
Variant = S47N; result = -1.53 natural log
Variant = Q55C; result = -1.46 natural log
Variant = I28H; result = -1.49 natural log
Variant = L45V; result = -1.52 natural log
Variant = L45T; result = -1.4 natural log
Variant = R30A; result = -1.31 natural log
Variant = E44Q; result = -1.45 natural log
Variant = K36G; result = -1.49 natural log

For quick reference, copied from above (series 2):
Strand = AGTATACA; result = 0.316
Strand = ACCAACTA; result = 0.256
Strand = AATACACA; result = 0.349
Strand = TATTTAGA; result = 0.28
Strand = CAACAATA; result = 0.318
Strand = ACAATAAT; result = 0.307
Strand = AAAAACGA; result = 0.294
Strand = AATACAAC; result = 0.309
Strand = ACGTAACA; result = 0.288
Strand = AAACACTA; result = 0.272
Strand = CACATACA; result = 0.316
Strand = CTATTCAA; result = 0.348
Strand = TAGTTATA; result = 0.316
Strand = TGTAATAA; result = 0.31
